Experimental data from different studies.
Numbered parts are unrelated; each lists some results of a single study.

Study 1
Target: Phosphate system positive regulatory protein PHO4, full length, GST-tagged (PHO4, Saccharomyces cerevisiae, UniProt P07270, residues 1-312)
Technique: competition protein-binding microarray
Form: double-stranded DNA, one strand shown
Medium: in vitro
Tested at: 2 µM
Notes: whole 60-bp probe, lowest competitor level
Added: Cbf1 competitor, 0.05 µM
Reading: higher = stronger binding
Construct (chain): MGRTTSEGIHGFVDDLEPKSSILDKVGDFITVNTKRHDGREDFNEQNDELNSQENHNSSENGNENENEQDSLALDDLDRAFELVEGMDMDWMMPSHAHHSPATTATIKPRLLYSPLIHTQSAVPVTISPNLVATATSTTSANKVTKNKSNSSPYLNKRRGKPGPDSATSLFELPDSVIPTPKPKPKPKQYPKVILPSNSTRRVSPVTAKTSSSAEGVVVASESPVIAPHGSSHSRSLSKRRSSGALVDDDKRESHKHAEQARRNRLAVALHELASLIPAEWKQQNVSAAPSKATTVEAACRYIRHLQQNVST
| Sequence | fluorescence intensity [a.u.] |
| --- | --- |
| CTGAACATCCTATTCCTCGTGGCCGAATGGTTACGGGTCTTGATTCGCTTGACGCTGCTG | 11200 |
| AAATTACTAAGTTGTCACGCAACTTACCCCGTATGAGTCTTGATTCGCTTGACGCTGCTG | 5410 |
| CGGGGTTAAGTTTGGATGGTGGGTGGCTTGCAGCAGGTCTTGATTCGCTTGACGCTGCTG | 4950 |
| CTAACGAAGGTTTGAGCTGTGGGTGACAAGCCAAGTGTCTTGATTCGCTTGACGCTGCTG | 3800 |
| TCATTGCTGGCTTGCCACGTGATGGCAATAGGCTTTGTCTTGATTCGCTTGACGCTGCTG | 15300 |
| CCACTAATTAGCTGTCATGTGCCTGCGAACGCCCAAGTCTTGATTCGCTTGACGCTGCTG | 8520 |
| TATCGTCAATCAACAAGCATGACAGACCAGCAACATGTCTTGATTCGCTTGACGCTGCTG | 5630 |
| CGAATGGAGAGCGGCCACGTTGTTAGGGGAGTAACAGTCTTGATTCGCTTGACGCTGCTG | 14500 |
| GTCTTGTCTCATTGTCAAGTGGGTGTCCCCACTTCAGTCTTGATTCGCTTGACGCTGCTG | 4430 |
| ACCTCATCACATCGACGCGTGGAACAGCGTTTCTTCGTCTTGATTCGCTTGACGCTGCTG | 7560 |
| ACTGAAAAAAGCCTGCGCGTGCGGAAACAAAACTGCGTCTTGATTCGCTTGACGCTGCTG | 11200 |
| CCGGCCATTGCTTACCGCGTGCAAAATCCGTAACATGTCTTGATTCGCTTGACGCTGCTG | 11500 |
| CTAACGAAGGTTTGTATAGTGGGTGACAAGCCAAGTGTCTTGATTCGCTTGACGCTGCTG | 3270 |
| ACTGGTAAGCACCGTCACGCTAAAGTCCATTTGGTTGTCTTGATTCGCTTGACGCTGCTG | 4670 |
| CATACCCAACCTTGCCGGGTGGGTGAAGATATTTGTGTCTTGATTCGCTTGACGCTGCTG | 4670 |
| CAGGTGTGGTTCAACCAAGATTAAGAGAGTATGATAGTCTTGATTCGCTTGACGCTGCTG | 4100 |
| GGAGGTAAGGACAAACTCGTGGAAGTGGCGATTAATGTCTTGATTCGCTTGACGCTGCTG | 8170 |

Study 2
Target: RING finger protein unkempt homolog, zinc fingers 1-6, GST-SBP tag (UNK, Homo sapiens, UniProt Q9C0B0, residues 30-357)
Technique: RNA Bind-n-Seq
Form: RNA
Medium: in vitro
Tested at: not given
Notes: RNA with constant flanks, ends assumed
Baseline: input RNA pool
Reading: higher = stronger binding
Target sequence (chain): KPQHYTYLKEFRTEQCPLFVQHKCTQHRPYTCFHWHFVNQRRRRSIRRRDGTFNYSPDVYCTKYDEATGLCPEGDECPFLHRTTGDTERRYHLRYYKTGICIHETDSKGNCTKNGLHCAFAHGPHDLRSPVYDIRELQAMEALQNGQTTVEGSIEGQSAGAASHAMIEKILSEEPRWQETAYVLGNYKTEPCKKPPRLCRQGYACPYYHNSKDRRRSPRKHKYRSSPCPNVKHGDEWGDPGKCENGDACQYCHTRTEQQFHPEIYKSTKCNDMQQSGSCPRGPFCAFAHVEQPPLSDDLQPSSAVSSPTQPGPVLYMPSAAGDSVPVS
| Sequence | bound/input enrichment [ratio] |
| --- | --- |
| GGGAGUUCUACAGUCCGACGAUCGGCUGACAUGGCUGGCCAUUAAGCUUUAUAAAAUCAUGUGGGCUCUGAAAUUGUUCUUUUAUGUGUCCCGCAAGUAUUUAAUAAACCCUUGUAUAGUAAUUUUGUUGUUGUUGGGUGCUGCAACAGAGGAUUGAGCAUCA | 9.67 |
| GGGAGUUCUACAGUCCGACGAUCGACAAAACGCACCCUACCUGGAAAGUACUUGGAGAAGAUCGCAGAGCAGAUGCAUUCCCACCGUAUCAAUGCCCUUCUGAUCAUUGGAGGAUUUGAGCCAGUGGUAAUAUGAGAGAAUGACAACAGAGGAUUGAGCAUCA | 0.0693 |
| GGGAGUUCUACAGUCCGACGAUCUGCUCGUUUGCUUCUUCCAUCCUUUCUUCUGAGGGAGGGGUCCUGUUGUAGUGUGAAUUCUACCGUCUCGCUUGUCCUUGAAUUUAUGGAAACCCUUCAUUUCAGCUUCUCUAGUGUUGGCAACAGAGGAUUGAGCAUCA | 0.257 |
| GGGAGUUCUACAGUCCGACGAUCGGGAUCACUCCGUCGCACCCACCAUGAUGGAAGACGACGGACAGCCCCGGACUCUAUACGCCGGUAACCUCUCCAGAGAUGUGACAGAAGUCCUUAUUCUUCAGUUAUUCAGUCAGAUCGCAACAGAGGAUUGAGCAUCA | 0.0509 |
| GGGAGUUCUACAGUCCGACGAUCAAUGCUGUUCGCCAAAAUGGACAGCUGGUCAGAAAUGAUUCUCUGUAUGGCAUUUCAAAUACCGAUACAACCAUUGAAGGAACGUCAGAUGACCUGACUGUUGUAGAUGCAGCUUCACUACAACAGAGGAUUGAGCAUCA | 0.147 |
| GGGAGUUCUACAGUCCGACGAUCGAUCCUCCACGAUUACGUGAAUAAAAUGAUGGAACCAAAAAUCACUGUCACUUUACAACUCCGGUUUUACUCUUUUCUUUCUACAGACCAUAUUUUUAAAGAAAUGUUUAUACAAUAAUUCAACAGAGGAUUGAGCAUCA | 0.218 |
| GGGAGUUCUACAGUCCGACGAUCCUCACACCGUGUGUGGUCCAGGCUGUACCUUCAGAUCUUUAUGUGGUUCCAAAAUGUCCUCCGCUGCCCUGUGGCCUGAAGGAAUCCAGAGCCAGGGAGCAAUAUGCUGAUAGCAGGGUGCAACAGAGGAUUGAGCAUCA | 0.144 |
| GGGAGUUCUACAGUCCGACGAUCGAAAAACUGUUUGCUGAAGACACAGAGGCAAAGAAUCCAUUUUCAACUCAGGACACUGAUUCCGAUUUGGAGAUGCUGGCUCCCUAUAUCCCAAUGGAUGAUGAUUUCCAGUUACGUUCCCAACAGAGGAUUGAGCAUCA | 0.145 |

Study 3
Target: RNA binding protein fox-1 homolog 2, RRM domain, GST-SBP tag (RBFOX2, Homo sapiens, UniProt O43251-10, residues 100-194)
Technique: RNA Bind-n-Seq
Form: RNA
Medium: in vitro
Tested at: 365 nM
Notes: natural RNA segment, single round, ends assumed
Baseline: no-protein control
Reading: higher = stronger binding
Target sequence (chain): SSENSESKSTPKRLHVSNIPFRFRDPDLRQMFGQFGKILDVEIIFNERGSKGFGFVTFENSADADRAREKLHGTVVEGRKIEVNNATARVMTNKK
| Sequence | RBNS enrichment (R) |
| --- | --- |
| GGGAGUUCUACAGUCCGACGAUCUAUCACAUCUUCACUGGCCCCUGUGGCCCUGCAUGUAGUAGGGGAGGCUUCAGUCAGCCCCUCACUGUGGUCCAAGAAUGCCACACACCUUUCCGUAGAUAUGCCGAUGGUGGAAUUCUCGGGUGCCAA | 2.02 |
| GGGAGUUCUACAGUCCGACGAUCAACAAACAGUACCAGUAUUUGAUCCAGUCUCAUCUCAGCUGUGUUAUACCUGGACAAUUUAGAUGUUUAUCAAAGGUCUUUUAUGGGGAAGAAAGCAAAUGUGUAAAACAUGGAAUUCUCGGGUGCCAA | 0.857 |
| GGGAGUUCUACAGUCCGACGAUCCUCAUUCAGCACCAGCGUUCCCACACAGGCGAGAGGCCGUACCGCUGCGCUGUGUGUGGCAAGGGCUUCUGUCGCUCCUCCACGCUGCUACAGCACCAUCGCGUGCAUAGUGGAAUUCUCGGGUGCCAA | 0.314 |
| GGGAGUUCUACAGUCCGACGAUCCUAGCGUCCGCCCUACUCUGCCGCACUUGCCUGUUCGUUUCCUUUCCAUUUUGCACUUGCACUAUUGAACAUGACCCUGCCAGAAAUGCAAAGGGAAUGAAAUCCUGAAGUGGAAUUCUCGGGUGCCAA | 4.56 |
| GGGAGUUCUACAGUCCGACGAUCUCCUGCAUUCUGAAAUACAUUGGCCUAGAACAUUUUAUCCCAGGCAUUUUUGAAUAGAAAACAGUUGCGUGCUUUUAUUGAAGAUUGUUAAAAUAAUCACCAUAGUAACUUGGAAUUCUCGGGUGCCAA | 0.937 |
| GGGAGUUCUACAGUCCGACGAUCAUGGGAGUGCCAAGGUGGCCAGAUGGUUCCAGGACUACAAUGUCUUUAUUUUUAACUGUUUGCCACUGCUGCCCUCACCCCUGCCCGGCUCUGGAGUACCGUCUGCCCCAUGGAAUUCUCGGGUGCCAA | 0.913 |

Study 4
Target: Ras GTPase-activating protein-binding protein 1, RRM domain (G3BP1, Homo sapiens, UniProt Q13283)
Chain of UniProt Q13283 (whole entry, looked up): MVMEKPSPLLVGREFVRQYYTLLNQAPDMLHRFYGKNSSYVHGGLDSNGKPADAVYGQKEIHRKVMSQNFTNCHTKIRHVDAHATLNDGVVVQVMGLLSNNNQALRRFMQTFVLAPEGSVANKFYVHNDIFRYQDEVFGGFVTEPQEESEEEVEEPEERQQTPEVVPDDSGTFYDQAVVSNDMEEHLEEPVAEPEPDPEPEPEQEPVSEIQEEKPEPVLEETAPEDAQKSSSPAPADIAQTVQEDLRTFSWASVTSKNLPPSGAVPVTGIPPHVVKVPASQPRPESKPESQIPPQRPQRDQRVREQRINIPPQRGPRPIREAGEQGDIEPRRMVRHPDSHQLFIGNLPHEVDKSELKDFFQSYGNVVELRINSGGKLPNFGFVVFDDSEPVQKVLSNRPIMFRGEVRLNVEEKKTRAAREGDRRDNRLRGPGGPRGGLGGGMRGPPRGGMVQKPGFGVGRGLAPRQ
Technique: RNA Bind-n-Seq
Form: RNA
Medium: in vitro
Tested at: 1 µM
Notes: whole 134-nt RNA, ends assumed
Added: 150 mM KCl
Baseline: input library
Reading: higher = stronger binding
| Sequence | log2 enrichment |
| --- | --- |
| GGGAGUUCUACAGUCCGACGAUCCCUGUGCUACACAUCGUAUGUACCGAAUCGGCCCCCCCGGGGCCCCCCCGGCCCCCCCGGAAAGUAUUAUGUUACGCCGUUCGGAUCUGCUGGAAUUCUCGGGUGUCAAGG | -0.667 |
| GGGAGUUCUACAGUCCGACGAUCACCAUGCAGGUGGGCAUCUUUGGGAAGUGGGGCAAGGGGGGGAUAGGGAGGGGGGUAACACUUUGAAAACAGGUGGUCCCAGGUCGUUUCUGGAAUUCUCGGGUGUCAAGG | -0.473 |
| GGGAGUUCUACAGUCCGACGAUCCCUGUGCUACACAUCGUAUGUACCGAAUCGGGAAAAAAGGGGAAAAAAGGAAAAAAGGGGAAAGUAUUAUGUUACGCCGUUCGGAUCUGCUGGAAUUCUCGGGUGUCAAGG | 0.0455 |
| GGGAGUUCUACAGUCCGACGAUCUAGUUUAUGCCAACGUGACUUCAUUCAUACAGAUGAACCAAGGAUCGGGAUAGCAGUAUAAAAUUAGAAUCAAGACAGCUGACUGCUCAGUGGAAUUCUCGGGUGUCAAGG | -0.385 |
| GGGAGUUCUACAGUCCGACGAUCCACAGACAACACGCACCCACACAGACACAGAGUGAAGGGGUUGGGAUGGGGACAGGGUGCACAGCAGGGCGGGGUAGGACCCCAGCCCCUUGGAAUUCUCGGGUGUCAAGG | 0.0767 |
| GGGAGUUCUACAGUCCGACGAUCAUGGAUGACCCCUCUGUGGGCCCCAAGAUCCCCCAGGCUUUGGAGAAGAUCCUGCAGCUGAAGGAGAGCCGCCAGGAAGAGAUGAAUUCUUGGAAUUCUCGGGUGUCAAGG | -0.487 |
| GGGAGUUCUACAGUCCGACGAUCAAGUCCUGUGCUACACAUCGUAUGUACCGAAUCGGUUUUGGUUUUGGGUUUUGGGGAAAGUAUUAUGUUACGCCGUUCGGAUCUGCACUUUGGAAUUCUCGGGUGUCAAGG | -0.258 |
| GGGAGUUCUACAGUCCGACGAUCUUGCCCUGGUGGCAUGCGGGGAGGAAGAGGUGGCCUCAUGGAUCGUGGUGGUCCCGGUGGAAUGUUCAGAGGUGGCCGUGGUGGAGACAGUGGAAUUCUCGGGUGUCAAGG | 0.728 |
| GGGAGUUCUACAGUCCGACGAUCUGGGAGGUGGAUUUUGUUUAUUGUUUUAGCUCAUUUCCAGGGGUGGGAAUUUUUUUUUAAUAUGUGUCAUGAAUAAAGUUGUUUUUGAAAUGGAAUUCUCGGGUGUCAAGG | 1.53 |
| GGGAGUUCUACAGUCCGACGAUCUUAAAGUAGAGGAACAAAAAGAAGAACAGAAGGAGUUAGAGAAAUCUGAAAAAGAAGAGGAUGAGGAUGAUGAUAGGAAAUCUGAAGACGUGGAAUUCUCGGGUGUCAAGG | 0.0679 |

Excerpt of the above (study 4):
| Sequence | log2 enrichment |
| --- | --- |
| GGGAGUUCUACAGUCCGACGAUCCCUGUGCUACACAUCGUAUGUACCGAAUCGGCCCCCCCGGGGCCCCCCCGGCCCCCCCGGAAAGUAUUAUGUUACGCCGUUCGGAUCUGCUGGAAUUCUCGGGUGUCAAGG | -0.667 |
| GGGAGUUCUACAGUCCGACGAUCACCAUGCAGGUGGGCAUCUUUGGGAAGUGGGGCAAGGGGGGGAUAGGGAGGGGGGUAACACUUUGAAAACAGGUGGUCCCAGGUCGUUUCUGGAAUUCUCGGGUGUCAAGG | -0.473 |
| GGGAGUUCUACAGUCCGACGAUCCCUGUGCUACACAUCGUAUGUACCGAAUCGGGAAAAAAGGGGAAAAAAGGAAAAAAGGGGAAAGUAUUAUGUUACGCCGUUCGGAUCUGCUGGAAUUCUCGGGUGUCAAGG | 0.0455 |
